{"data": "Assay results pooled from the literature", "GBA2": "Beta-glucosidase (GBA2, Homo sapiens, UniProt Q9HCG7)", "HSP90B1": "Endoplasmin (HSP90B1, Canis lupus familiaris, UniProt P41148)", "note": "Compare with care: the assays were run in different laboratories. “And” joins repeats or separate records; there may be more than shown.", "chain of UniProt Q9HCG7 (whole entry, looked up)": "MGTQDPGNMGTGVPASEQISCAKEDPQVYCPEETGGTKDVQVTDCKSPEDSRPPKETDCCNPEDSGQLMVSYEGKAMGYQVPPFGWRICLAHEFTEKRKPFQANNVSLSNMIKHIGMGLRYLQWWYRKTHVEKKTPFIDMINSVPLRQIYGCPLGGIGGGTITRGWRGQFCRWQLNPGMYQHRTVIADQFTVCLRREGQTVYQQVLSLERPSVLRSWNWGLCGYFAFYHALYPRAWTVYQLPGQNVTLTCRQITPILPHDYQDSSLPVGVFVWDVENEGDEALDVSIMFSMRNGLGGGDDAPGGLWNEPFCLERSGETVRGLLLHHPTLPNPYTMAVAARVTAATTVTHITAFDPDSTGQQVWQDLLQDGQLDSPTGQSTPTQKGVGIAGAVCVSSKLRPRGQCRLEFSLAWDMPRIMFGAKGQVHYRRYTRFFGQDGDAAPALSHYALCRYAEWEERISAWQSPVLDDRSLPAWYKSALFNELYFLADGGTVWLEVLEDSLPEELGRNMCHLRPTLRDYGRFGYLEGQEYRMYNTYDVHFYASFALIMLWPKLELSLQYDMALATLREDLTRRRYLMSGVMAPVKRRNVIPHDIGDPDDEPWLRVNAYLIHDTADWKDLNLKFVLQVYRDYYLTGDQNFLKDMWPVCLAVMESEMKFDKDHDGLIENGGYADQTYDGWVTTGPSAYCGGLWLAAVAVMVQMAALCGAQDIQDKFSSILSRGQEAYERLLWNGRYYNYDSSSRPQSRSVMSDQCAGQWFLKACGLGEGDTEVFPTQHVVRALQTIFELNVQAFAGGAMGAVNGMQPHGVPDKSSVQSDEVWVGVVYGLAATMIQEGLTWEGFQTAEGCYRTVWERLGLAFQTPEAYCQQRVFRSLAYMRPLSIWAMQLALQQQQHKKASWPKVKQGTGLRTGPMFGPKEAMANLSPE", "chain of UniProt O00257 (whole entry, looked up)": "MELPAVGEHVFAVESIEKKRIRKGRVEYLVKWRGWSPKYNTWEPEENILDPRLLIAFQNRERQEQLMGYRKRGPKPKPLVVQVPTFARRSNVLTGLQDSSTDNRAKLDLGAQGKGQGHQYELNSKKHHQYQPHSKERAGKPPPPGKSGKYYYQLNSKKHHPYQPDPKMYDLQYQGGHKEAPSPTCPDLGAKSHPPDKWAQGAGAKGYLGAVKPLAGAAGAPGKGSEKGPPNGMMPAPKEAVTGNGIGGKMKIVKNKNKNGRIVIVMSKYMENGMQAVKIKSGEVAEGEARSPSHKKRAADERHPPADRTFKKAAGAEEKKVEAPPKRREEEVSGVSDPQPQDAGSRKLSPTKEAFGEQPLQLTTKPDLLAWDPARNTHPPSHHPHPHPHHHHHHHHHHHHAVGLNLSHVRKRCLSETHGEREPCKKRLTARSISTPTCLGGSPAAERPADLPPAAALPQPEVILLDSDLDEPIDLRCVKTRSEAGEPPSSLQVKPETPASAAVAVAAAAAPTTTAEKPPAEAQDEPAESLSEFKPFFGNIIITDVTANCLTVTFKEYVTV", "chain of UniProt P41148 (whole entry, looked up)": "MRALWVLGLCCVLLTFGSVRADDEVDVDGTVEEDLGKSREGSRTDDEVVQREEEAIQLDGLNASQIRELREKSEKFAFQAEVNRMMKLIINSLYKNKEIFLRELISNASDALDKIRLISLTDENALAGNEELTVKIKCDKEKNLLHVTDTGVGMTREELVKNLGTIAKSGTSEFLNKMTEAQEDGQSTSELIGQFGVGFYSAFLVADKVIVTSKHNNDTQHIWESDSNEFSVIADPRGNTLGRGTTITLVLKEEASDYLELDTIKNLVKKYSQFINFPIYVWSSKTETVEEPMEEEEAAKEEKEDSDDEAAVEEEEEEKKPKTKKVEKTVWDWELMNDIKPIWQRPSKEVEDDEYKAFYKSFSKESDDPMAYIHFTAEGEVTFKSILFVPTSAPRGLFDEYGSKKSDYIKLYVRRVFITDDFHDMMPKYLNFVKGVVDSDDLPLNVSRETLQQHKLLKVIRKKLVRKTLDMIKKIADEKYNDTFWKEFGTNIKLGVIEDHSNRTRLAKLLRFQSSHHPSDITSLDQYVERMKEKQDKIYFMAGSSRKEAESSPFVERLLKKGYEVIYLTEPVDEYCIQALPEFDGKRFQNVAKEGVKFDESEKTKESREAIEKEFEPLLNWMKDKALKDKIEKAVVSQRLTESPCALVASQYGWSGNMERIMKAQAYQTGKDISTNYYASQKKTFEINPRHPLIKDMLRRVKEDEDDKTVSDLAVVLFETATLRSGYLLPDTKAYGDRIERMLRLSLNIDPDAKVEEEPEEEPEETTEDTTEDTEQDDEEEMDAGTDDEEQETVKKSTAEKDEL", "chain of UniProt P21802 (whole entry, looked up)": "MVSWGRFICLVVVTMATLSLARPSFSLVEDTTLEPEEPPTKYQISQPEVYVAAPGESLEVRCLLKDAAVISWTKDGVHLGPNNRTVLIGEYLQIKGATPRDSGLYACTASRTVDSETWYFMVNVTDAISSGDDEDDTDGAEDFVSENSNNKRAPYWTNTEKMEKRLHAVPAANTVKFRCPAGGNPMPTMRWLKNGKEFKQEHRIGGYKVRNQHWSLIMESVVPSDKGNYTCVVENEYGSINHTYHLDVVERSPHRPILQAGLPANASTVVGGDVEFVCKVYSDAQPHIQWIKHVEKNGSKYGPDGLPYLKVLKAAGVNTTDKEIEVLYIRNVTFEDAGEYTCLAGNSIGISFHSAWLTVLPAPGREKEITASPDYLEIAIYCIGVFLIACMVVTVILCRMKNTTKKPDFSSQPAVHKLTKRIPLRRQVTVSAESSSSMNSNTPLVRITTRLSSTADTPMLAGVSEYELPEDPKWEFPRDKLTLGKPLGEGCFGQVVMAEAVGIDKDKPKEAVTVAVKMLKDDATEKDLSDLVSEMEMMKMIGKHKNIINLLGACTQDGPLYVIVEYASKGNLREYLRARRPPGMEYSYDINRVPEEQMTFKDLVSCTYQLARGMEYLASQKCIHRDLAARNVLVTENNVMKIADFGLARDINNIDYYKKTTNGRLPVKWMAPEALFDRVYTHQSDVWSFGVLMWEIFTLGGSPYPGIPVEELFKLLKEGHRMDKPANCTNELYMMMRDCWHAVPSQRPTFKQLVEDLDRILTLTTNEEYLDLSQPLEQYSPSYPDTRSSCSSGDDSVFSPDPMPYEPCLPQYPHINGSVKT", "chain of UniProt Q15849 (whole entry, looked up)": "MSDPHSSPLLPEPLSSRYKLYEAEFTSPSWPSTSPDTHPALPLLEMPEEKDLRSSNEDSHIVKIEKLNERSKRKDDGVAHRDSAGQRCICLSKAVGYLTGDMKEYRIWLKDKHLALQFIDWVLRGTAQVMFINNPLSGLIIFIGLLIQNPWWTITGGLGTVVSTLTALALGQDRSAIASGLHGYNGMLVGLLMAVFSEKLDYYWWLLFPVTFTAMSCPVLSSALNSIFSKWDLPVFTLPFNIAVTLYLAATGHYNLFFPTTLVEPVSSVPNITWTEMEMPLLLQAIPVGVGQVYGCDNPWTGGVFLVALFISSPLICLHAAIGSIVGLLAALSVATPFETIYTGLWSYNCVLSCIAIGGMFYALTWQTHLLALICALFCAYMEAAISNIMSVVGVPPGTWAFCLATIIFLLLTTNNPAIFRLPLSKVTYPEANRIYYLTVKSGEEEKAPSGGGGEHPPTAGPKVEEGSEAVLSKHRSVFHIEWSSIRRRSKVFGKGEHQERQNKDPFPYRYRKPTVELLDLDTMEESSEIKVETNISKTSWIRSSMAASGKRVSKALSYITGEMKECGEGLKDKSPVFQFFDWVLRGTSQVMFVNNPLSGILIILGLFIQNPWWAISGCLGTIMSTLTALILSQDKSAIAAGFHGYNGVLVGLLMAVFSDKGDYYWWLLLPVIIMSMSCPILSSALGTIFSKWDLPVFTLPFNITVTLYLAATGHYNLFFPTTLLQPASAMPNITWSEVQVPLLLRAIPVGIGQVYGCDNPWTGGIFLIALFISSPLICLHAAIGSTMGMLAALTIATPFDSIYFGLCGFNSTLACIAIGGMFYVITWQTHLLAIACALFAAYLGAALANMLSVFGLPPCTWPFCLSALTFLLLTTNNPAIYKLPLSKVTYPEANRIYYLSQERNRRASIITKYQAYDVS", "chain of UniProt P28161 (whole entry, looked up)": "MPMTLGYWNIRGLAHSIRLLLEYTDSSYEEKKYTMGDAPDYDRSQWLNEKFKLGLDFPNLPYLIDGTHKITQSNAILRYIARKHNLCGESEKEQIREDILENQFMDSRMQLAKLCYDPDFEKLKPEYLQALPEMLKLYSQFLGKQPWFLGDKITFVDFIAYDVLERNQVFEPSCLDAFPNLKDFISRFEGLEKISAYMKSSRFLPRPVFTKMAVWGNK"}
{"SMILES": "OC[C@@H]1[C@@H](O)[C@H](O)[C@@H](O)CN1CCCCCOCC1CCOC1 (some centres unmarked)", "target": "GBA2", "how to read": "reference: GBA3 over target", "selectivity ratio": 3360}
{"SMILES": "CC(=O)N[C@H](Cc1ccc2ccccc2c1)C(=O)N[C@](C)(Cc1ccc(Cl)cc1)C(=O)N[C@H](Cc1c[nH]c2ccccc12)C(=O)N[C@@H](CO)C(=O)N[C@@H](CCCCNC(C)C)C(=O)N[C@H](Cc1ccc(O)cc1)C(=O)N[C@@H](CC(C)C)C(=O)N[C@@H](CCCNC(=N)N)C(=O)N1CCC[C@H]1C(=O)N[C@H](C)C(N)=O", "target": "Gonadotropin-releasing hormone receptor (Gallus gallus, UniProt Q9DDC9)", "assay": "inositol phosphate production, antagonist", "test system": "COS-7 transfected", "how to read": "reference: Gonadotropin-releasing hormone receptor over cGnRH-R-III", "selectivity ratio": "153 fold"}
{"SMILES": "C=C(C)C(=O)Nc1ccc(-c2c(-c3ccc(Oc4cccc(C)n4)cc3)c3c(N)ncnc3n2C)cc1", "target": "FGFR2 (Homo sapiens, UniProt P21802)", "assay": "kinact/KI, covalent inhibitor, intact mass spectrometry", "how to read": "reference: FGFR2 over FGFR1", "selectivity ratio": "~60 fold"}
{"SMILES": "COc1cccc(/C=C2/SC(=N)NC2=O)c1OC", "target": "Urea transporter 2, UT-A2 isoform (SLC14A2, Homo sapiens, UniProt Q15849)", "assay": "urea transport, inhibitor", "how to read": "reference: UT-B IC50 over UT-A2 IC50", "selectivity ratio": "~6 fold"}
{"SMILES": "COC(=O)c1c(O)cc(O)c(Cl)c1CCc1cccc(Cc2ccccc2)c1", "target": "HSP90B1", "assay": "fluorescence polarization", "setting": "with: FITC-geldanamycin tracer", "how to read": "reference: HSP90B1 over Hsp90α", "selectivity ratio": "> 10 fold"}
{"SMILES": "C=C(CC)C(=O)c1ccc(OCC(=O)NCCCCNC(=O)COc2ccc(C(=O)C(=C)CC)c(Cl)c2Cl)c(Cl)c1Cl", "target": "Glutathione S-transferase Mu 2 (Homo sapiens, UniProt P28161)", "assay": "enzyme activity, inhibitor", "setting": "no preincubation", "how to read": "reference: GSTA IC50 over GSTM IC50", "selectivity ratio": "~12 fold"}
{"SMILES": "C[C@H](NC(=O)[C@H](Cc1ccccc1)NC(=O)c1ccc(C(C)(C)C)cc1)C(=O)N[C@H](C(=O)N[C@@H](CCCC[N+](C)(C)C)C(=O)N[C@@H](CO)C(N)=O)C1CCCC1", "target": "E3 SUMO-protein ligase CBX4 (Homo sapiens, UniProt O00257)", "assay": "competitive fluorescence polarization", "how to read": "reference: Cbx7 over E3 SUMO-protein ligase CBX4", "selectivity ratio": "> 4 fold and 4.3 fold"}
{"SMILES": "OC[C@@H]1[C@@H](O)[C@H](O)[C@@H](O)CN1CCCCCOCC1CCCO1 (some centres unmarked)", "target": "GBA2", "how to read": "reference: GBA3 over target", "selectivity ratio": 819}
{"SMILES": "COC(=O)c1c(O)cc(O)c(Cl)c1CCc1ccccc1Cc1ccccc1OC", "target": "HSP90B1", "assay": "fluorescence polarization", "setting": "with: FITC-geldanamycin tracer", "how to read": "reference: HSP90B1 over Hsp90α", "selectivity ratio": "> 13 fold"}
{"SMILES": "CC(OCCCCCN1C[C@H](O)[C@@H](O)[C@H](O)[C@H]1CO)C(C)(C)C (some centres unmarked)", "target": "GBA2", "how to read": "reference: GBA1 over target", "selectivity ratio": 1240}
{"SMILES": "CN(C)CCNC(=O)c1cccc2c(NCCCCc3c(N)nc(N)nc3N)c3ccccc3nc12", "target": "RNA E, C–C mismatch", "assay": "binding, ITC", "how to read": "reference: Kd RNA A over Kd RNA E", "selectivity ratio": 0.2}
{"note": "Repeated from above:"}
{"SMILES": "CC(=O)N[C@H](Cc1ccc2ccccc2c1)C(=O)N[C@](C)(Cc1ccc(Cl)cc1)C(=O)N[C@H](Cc1c[nH]c2ccccc12)C(=O)N[C@@H](CO)C(=O)N[C@@H](CCCCNC(C)C)C(=O)N[C@H](Cc1ccc(O)cc1)C(=O)N[C@@H](CC(C)C)C(=O)N[C@@H](CCCNC(=N)N)C(=O)N1CCC[C@H]1C(=O)N[C@H](C)C(N)=O", "target": "Gonadotropin-releasing hormone receptor (Gallus gallus, UniProt Q9DDC9)", "assay": "inositol phosphate production, antagonist", "test system": "COS-7 transfected", "how to read": "reference: Gonadotropin-releasing hormone receptor over cGnRH-R-III", "selectivity ratio": "153 fold"}
